Published values pooled from the literature.
Every numbered part comes from another study and shows a few of its results, in no order. pEC50, pIC50: −log10 of the molar value.
Sequence of UniProt P35372 (whole entry, looked up): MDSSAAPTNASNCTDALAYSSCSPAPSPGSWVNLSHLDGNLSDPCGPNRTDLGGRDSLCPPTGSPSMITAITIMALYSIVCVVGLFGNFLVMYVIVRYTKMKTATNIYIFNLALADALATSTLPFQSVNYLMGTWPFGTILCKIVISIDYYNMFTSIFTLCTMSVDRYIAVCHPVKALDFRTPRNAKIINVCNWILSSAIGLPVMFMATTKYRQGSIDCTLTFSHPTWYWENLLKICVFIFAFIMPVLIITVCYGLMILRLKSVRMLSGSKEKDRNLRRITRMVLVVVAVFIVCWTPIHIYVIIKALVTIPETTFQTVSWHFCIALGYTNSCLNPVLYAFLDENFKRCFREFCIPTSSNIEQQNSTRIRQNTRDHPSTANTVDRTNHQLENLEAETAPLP
Sequence of UniProt Q8NCB2 (whole entry, looked up): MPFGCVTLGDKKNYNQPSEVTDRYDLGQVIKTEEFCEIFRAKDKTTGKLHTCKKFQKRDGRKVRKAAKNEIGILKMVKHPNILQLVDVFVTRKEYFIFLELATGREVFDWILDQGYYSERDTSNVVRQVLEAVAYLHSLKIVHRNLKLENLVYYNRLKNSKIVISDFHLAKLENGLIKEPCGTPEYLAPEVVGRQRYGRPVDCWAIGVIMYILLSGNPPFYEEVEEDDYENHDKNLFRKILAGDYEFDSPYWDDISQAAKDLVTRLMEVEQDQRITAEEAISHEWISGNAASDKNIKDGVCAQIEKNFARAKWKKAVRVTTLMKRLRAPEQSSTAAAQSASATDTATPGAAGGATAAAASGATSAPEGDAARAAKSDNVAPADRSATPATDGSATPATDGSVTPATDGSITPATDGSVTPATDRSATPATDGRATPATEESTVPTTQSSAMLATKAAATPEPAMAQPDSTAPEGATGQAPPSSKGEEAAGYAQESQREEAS

Set 1
Target: Beta-1 adrenergic receptor (ADRB1, Homo sapiens, UniProt P08588)
Sequence of UniProt P08588 (whole entry, looked up): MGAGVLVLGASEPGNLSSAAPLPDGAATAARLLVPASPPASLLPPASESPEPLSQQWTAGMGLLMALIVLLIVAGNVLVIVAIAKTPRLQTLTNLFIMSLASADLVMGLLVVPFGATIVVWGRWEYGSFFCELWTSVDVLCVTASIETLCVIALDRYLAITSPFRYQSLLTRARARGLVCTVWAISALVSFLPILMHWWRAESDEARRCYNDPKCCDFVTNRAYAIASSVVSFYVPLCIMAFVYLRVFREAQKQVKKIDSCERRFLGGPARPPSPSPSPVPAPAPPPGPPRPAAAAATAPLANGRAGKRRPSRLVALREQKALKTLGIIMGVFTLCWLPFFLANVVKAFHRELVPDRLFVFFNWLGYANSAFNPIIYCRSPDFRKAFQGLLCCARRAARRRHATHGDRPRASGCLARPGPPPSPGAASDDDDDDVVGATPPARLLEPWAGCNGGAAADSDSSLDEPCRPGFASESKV
Mode: antagonist
The pIC50 of Cc1ccccc1-c1n[nH]c2ncc(-c3ccsc3)nc12 is reported as at most 4.00.
With O=C1c2ccc3ccccc3c2C(=O)C1c1cc(O)c2ccccc2n1 (centres unmarked) the pIC50 was at most 4.00.
COc1ccccc1N1CCN([C@@H]2[C@H](O)[C@H](CO)O[C@@H]2CNC(=O)c2ccc(F)c(Cl)c2)CC1 has a pIC50 of at most 4.00.
Cc1cc(C)n(-c2ccc(=O)n(C3CCN(c4nc5ccccc5cc4C#N)CC3)n2)n1 has a pIC50 of at most 4.00.
With N[S+](=O)([O-])c1ccc(Cc2c(-c3ccc(F)c(C#Cc4ccc(CNCCOCCOCCNC(=O)COc5cccc6c5C(=O)N(C5CCC(=O)NC5=O)C6=O)s4)c3)nn(-c3nc(C(=O)O)cs3)c2CC2CC2)cc1F (centres unmarked) the pIC50 was at most 4.00.
O=c1c2cc(-c3ccc(F)cc3)nn2ccn1CC(O)c1ccc2c(c1)OCO2 (centres unmarked) gave a pIC50 of at most 4.00.
COc1cccc(NC(=O)c2sc3nc(C)c(C(=O)Nc4ccc(C)cc4C)c(-c4ccc(C)o4)c3c2N)c1 has a pIC50 of at most 4.00.
COc1ccccc1-c1ccc2ncc(Nc3cc(F)cc(N4CCOCC4)c3)n2n1 has a pIC50 of at most 4.00.

Set 2
Host: human
Sample: microsomes or S9
Concentration: 2 µM
Time: 0.5 h
O=C(Nc1n[nH]c2cc(Br)ccc12)c1cc(-c2cccnc2)[nH]n1 has a remaining compound of 70.9%.
The remaining compound of CCC(=O)Nc1ccc(C(=O)OCc2ccc(C(=O)c3ccccc3)cc2)cc1 is reported as 64.2%.
Cc1cc(-c2cc(=O)[nH]c3nc4ccccc4n23)n(C)n1 gave a remaining compound of 70.4%.
CC(=O)N(c1nc(COC(=O)/C=C/c2cnn(C)c2)cs1)c1c(C)cc(C)cc1C gave a remaining compound of 0.441%.
For Clc1ccc(-c2nnc3ccc(Cl)nn23)c(Cl)c1, the remaining compound was 75.3%.
CC(=O)N1N=C(c2c(-c3ccccc3)c3cc(Br)ccc3[nH]c2=O)CC1c1ccco1 (centres unmarked) gave a remaining compound of 36%.
CN1C(=O)C(CC(=O)N2CCN(c3ccccn3)CC2)=C2CCCCC21 (centres unmarked) has a remaining compound of 20.4%.
Cc1nnc(N2CCc3nn(C)c(=O)cc3C2)c(C#N)c1C gave a remaining compound of over 100%.

Mixed results
HLA class I histocompatibility antigen, A alpha chain allele A*80:01: HLA class I histocompatibility antigen, A alpha chain, allele A*80:01 (Homo sapiens, UniProt P04439)
For `FVKDWMDRI`, “z-score of log IC50” read 0.38 (HLA class I histocompatibility antigen, A alpha chain allele A*80:01; peptide-MHC binding; peptide; direction not given).
NC(=O)c1cccc(-c2cc(Nc3ccc(OC(F)(F)F)cc3)ncn2)c1 has a pEC50 of under 5.00 (CaM kinase-like vesicle-associated protein (CAMKV, Homo sapiens, UniProt Q8NCB2); kinase–CDC37 interaction, inhibitor; human cells; kinome plate 2@E05).
`FLRKNQRAL`: “z-score of log IC50” 0.38 (HLA class I histocompatibility antigen, A alpha chain allele A*80:01; peptide-MHC binding; peptide; direction not given).
Nc1nc(NCc2ccccc2)nc(-c2cccc(CO)c2)n1 has an inhibition of 43.6% (Mu-type opioid receptor (OPRM1, Homo sapiens, UniProt P35372); ligand displacement; 10 µM).

Excerpt of the above (mixed results):
NC(=O)c1cccc(-c2cc(Nc3ccc(OC(F)(F)F)cc3)ncn2)c1 has a pEC50 of under 5.00 (CaM kinase-like vesicle-associated protein (CAMKV, Homo sapiens, UniProt Q8NCB2); kinase–CDC37 interaction, inhibitor; human cells; kinome plate 2@E05).
`FLRKNQRAL`: “z-score of log IC50” 0.38 (HLA class I histocompatibility antigen, A alpha chain allele A*80:01; peptide-MHC binding; peptide; direction not given).
